Measured values gathered from unrelated publications.
Lines come from different studies, so protocols differ. Numbers after ± are the reported error.
OPRL1: Nociceptin receptor (OPRL1, Homo sapiens, UniProt P41146)

The chains behind the UniProt entries cited, without tags or fusion partners. Residues count along the entry.
UniProt P41146, whole entry: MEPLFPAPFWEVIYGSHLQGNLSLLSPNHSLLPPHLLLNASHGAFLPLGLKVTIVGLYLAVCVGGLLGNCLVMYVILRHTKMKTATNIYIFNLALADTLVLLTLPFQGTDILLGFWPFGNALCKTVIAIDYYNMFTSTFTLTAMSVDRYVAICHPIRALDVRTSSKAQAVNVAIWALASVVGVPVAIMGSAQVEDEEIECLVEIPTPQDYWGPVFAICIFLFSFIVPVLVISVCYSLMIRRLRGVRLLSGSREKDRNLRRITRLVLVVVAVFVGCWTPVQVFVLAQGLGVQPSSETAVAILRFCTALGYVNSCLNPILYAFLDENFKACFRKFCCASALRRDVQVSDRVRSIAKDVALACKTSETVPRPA
UniProt P37136, 32-574 limits assumed: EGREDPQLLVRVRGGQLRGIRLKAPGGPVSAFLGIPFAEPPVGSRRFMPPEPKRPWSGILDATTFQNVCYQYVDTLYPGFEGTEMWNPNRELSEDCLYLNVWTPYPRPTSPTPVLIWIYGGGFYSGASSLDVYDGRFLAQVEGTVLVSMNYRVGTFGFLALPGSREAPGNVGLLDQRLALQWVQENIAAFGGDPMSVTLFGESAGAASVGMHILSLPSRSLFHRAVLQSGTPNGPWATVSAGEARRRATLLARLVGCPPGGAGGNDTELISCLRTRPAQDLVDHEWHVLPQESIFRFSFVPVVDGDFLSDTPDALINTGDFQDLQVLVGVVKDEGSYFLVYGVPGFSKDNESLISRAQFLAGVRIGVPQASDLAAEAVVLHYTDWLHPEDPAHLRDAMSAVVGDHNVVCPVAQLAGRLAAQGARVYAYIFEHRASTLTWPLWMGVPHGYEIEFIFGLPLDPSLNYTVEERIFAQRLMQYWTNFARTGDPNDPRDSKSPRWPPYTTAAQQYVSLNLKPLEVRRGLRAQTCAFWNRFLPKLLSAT

SMILES | tested on | assay | test system | conditions | how to read | endpoint | result
CC[C@H](C)[C@H](NC(=O)[C@H](C)NC(=O)[C@H](CCC(=O)O)NC(=O)[C@H](CCC(=O)O)NC(=O)[C@H](CC(C)C)NC(=O)[C@H](CCCCN)NC(=O)[C@H](CCCCN)NC(=O)[C@H](CCSC)NC(=O)[C@H](CCC(=O)O)NC(=O)[C@H](Cc1ccc(O)cc1)NC(=O)[C@H](CCC(=O)O)NC(=O)[C@H](CC(C)C)NC(=O)[C@H](CC(=O)O)NC(=O)[C@H](CC(C)C)NC(=O)[C@H](Cc1ccccc1)NC(=O)[C@H](Cc1ccccc1)NC(=O)[C@@H](NC(=O)[C@H](CC(N)=O)NC(=O)[C@@H](NC(=O)[C@H](CCC(N)=O)NC(=O)[C@H](CC(=O)O)NC(=O)[C@H](CC(C)C)NC(=O)[C@@H](N)CO)[C@@H](C)CC)C(C)C)C(=O)N[C@@H](CCCCN)C(=O)N[C@@H](CCCCN)C(=O)N[C@@H](CC(C)C)C(=O)N[C@@H](CCC(=O)O)C(=O)N[C@@H](CCC(=O)O)C(=O)N[C@@H](CO)C(=O)N[C@@H](Cc1ccc(O)cc1)C(=O)N[C@H](C(=O)N[C@@H](CC(=O)O)C(=O)N[C@@H](CC(C)C)C(=O)N[C@@H](CCCCN)C(=O)N[C@@H](CCC(=O)O)C(=O)N[C@@H](CC(C)C)C(=O)O)[C@@H](C)CC | SARS-CoV-2 | pseudovirus infection, inhibitor, luciferase | Caco-2, D614G pseudovirus | 24 h |  | IC50 | 0.287 µM
O=C(NC1CCN(c2ncnc3[nH]cnc23)CC1)c1cccc(NS(=O)(=O)c2ccc(Cl)cc2)c1 | SARS-CoV-2 | viral infection | Wuhan-Hu-1 |  |  | IC50 | 1.37 µM
O=C(Nc1ccc(F)cc1)C1C(=O)N(O)C(=O)c2cc([N+](=O)[O-])ccc21 (stereo not drawn) | Lymphocytic choriomeningitis mammarenavirus | minigenome reporter gene |  | 100 µM | relative to: DMSO | remaining activity | 63%
O=C1Cc2ccccc2N1C1CCN([C@@H]2CC[C@H]3CCCc4cccc2c43)CC1 | OPRL1 | calcium mobilization | CHO with Gαqi5 | concentration not given, unit not given | relative to: compound over N/OFQ Emax | intrinsic activity | 1.01
O=C(O)C(O)=CC(=O)c1ccc2cc(O)c(O)cc2c1 | Lymphocytic choriomeningitis mammarenavirus | minigenome reporter gene |  | 100 µM | relative to: DMSO | remaining activity | 71.7%
O=C(NC1CCN(c2ncnc3[nH]cnc23)CC1)c1cccc(NS(=O)(=O)c2ccc([N+](=O)[O-])cc2)c1 | SARS-CoV-2 |  | Wuhan-Hu-1 | 7.407 µM | relative to: untreated infected cells | relative infection | 26.4%
CS(=O)(=O)C=CCNC(=O)c1ccc2[nH]c(=O)n(C3CC3)c2c1 | Chikungunya virus | viral replication, nanoluciferase reporter | 181/25-nLuc-Capsid |  |  | IC50 | 9.8 ± 0.2 µM
Cc1ccccc1S(=O)(=O)Nc1cccc(C(=O)NC2CCN(c3ncnc4[nH]cnc34)CC2)c1 | SARS-CoV-2 |  | Wuhan-Hu-1 | 0.823 µM | relative to: untreated infected cells | relative infection | 59.6%
CC[C@H](C)[C@H](NC(=O)[C@H](C)NC(=O)[C@H](CCC(=O)O)NC(=O)[C@H](CCC(=O)O)NC(=O)[C@H](CC(C)C)NC(=O)[C@H](CCCCN)NC(=O)[C@H](CCCCN)NC(=O)[C@H](CCSC)NC(=O)[C@H](CCC(=O)O)NC(=O)[C@H](Cc1ccc(O)cc1)NC(=O)[C@H](CCC(=O)O)NC(=O)[C@H](CC(C)C)NC(=O)[C@H](CC(=O)O)NC(=O)[C@H](CC(C)C)NC(=O)[C@H](Cc1ccccc1)NC(=O)[C@@H](NC(=O)[C@@H](NC(=O)[C@H](CC(N)=O)NC(=O)[C@@H](NC(=O)[C@H](CCC(N)=O)NC(=O)[C@H](CC(=O)O)NC(=O)[C@H](CC(C)C)NC(=O)[C@@H](N)CO)[C@@H](C)CC)C(C)C)[C@@H](C)O)C(=O)N[C@@H](CCCCN)C(=O)N[C@@H](CCCCN)C(=O)N[C@@H](CC(C)C)C(=O)N[C@@H](CCC(=O)O)C(=O)N[C@@H](CCC(=O)O)C(=O)N[C@@H](CO)C(=O)N[C@@H](Cc1ccc(O)cc1)C(=O)N[C@H](C(=O)N[C@@H](CC(=O)O)C(=O)N[C@@H](CC(C)C)C(=O)N[C@@H](CCCCN)C(=O)N[C@@H](CCC(=O)O)C(=O)N[C@@H](CC(C)C)C(=O)O)[C@@H](C)CC | SARS-CoV-2 Delta pseudovirus | pseudovirus infection, inhibitor, luciferase | Caco-2 | 24 h, dual mutations |  | IC50 | 1.18 µM
CC(C)[C@H]1CC[C@@H](N2CCC3(CC2)C(=O)NCN3c2ccccc2)CC1 | OPRL1 | G protein interaction, BRET | HEK293 membranes | concentration not given, unit not given | relative to: N/OFQ maximal effect | intrinsic activity | 0.93 ± 0.02
CC[C@H](C)[C@H](NC(=O)[C@H](C)NC(=O)[C@H](CCC(=O)O)NC(=O)[C@H](CCC(=O)O)NC(=O)[C@H](CC(C)C)NC(=O)[C@H](CCCCN)NC(=O)[C@H](CCCCN)NC(=O)[C@H](CCSC)NC(=O)[C@H](CCC(=O)O)NC(=O)[C@H](Cc1ccc(O)cc1)NC(=O)[C@H](CCC(=O)O)NC(=O)[C@H](CC(C)C)NC(=O)[C@H](CC(=O)O)NC(=O)[C@H](CC(C)C)NC(=O)[C@H](Cc1ccccc1)NC(=O)[C@@H](NC(=O)[C@@H](NC(=O)[C@H](CC(N)=O)NC(=O)[C@@H](NC(=O)[C@H](CCC(N)=O)NC(=O)[C@H](CC(=O)O)NC(=O)[C@H](CC(C)C)NC(=O)[C@@H](N)CO)[C@@H](C)CC)C(C)C)[C@@H](C)O)C(=O)N[C@@H](CCCCN)C(=O)N[C@@H](CCCCN)C(=O)N[C@@H](CC(C)C)C(=O)N[C@@H](CCC(=O)O)C(=O)N[C@@H](CCC(=O)O)C(=O)N[C@H](C(=O)N[C@@H](Cc1ccc(O)cc1)C(=O)N[C@H](C(=O)N[C@@H](CC(=O)O)C(=O)N[C@@H](CC(C)C)C(=O)N[C@@H](CCCCN)C(=O)N[C@@H](CCC(=O)O)C(=O)N[C@@H](CC(C)C)C(=O)O)[C@@H](C)CC)[C@@H](C)O | SARS-CoV-2 Delta pseudovirus | pseudovirus infection, inhibitor, luciferase | Caco-2 | 24 h |  | IC50 | 0.718 µM
CCOP(=O)(OCC)ON1C(=O)c2cccc3cccc(c23)C1=O | Acetylcholinesterase (Ache, Rattus norvegicus, UniProt P37136) | enzyme activity, inhibitor, discontinuous Ellman | rat, postnatal day 12, rat lung homogenate | 15 min, 37 °C |  | IC50 | 0.03 µM

Excerpt of the above:
SMILES | tested on | assay | test system | conditions | how to read | endpoint | result
CS(=O)(=O)C=CCNC(=O)c1ccc2[nH]c(=O)n(C3CC3)c2c1 | Chikungunya virus | viral replication, nanoluciferase reporter | 181/25-nLuc-Capsid |  |  | IC50 | 9.8 ± 0.2 µM
